{"data": "Measured values pooled from the literature", "note": "Each line is one published result; not all experiments were run side by side. ± marks the error that the study gave."}
{"SMILES": "COc1ccc(N(C2CCCCC2)S(=O)(=O)C2CC3OC2C(c2ccc(O)cc2)=C3c2ccc(O)cc2)cc1 (stereo not drawn)", "target or system": "MCF7 3xERE-luc, steroid-deprived", "test": "ERE luciferase reporter, agonist", "measurement": "EC50", "result": "0.0316 µM"}
{"SMILES": "CC(=O)N(C)Cc1cccc(-c2cc3c(c(C(F)(F)F)c2)CCCC3N(C)C(=O)CCOCCOCCC(=O)N(C)C2CCCc3c2cc(-c2cccc(CN(C)C(C)=O)c2)cc3C(F)(F)F)c1 (stereo not drawn)", "target or system": "CHO EIF2B4 L180F mutant", "test": "CHOP::GFP reporter, activator, flow cytometry", "measurement": "EC50", "result": "22.6 µM"}
{"SMILES": "COC(=O)[C@H](C)NC(=O)[C@H](C)NC(=O)c1csc(-c2cccnc2)n1", "target or system": "SCC-61", "test": "cell viability", "measurement": "EC50", "result": "> 30 µM"}
{"SMILES": "O=S(=O)(C1CC2OC1C(c1ccc(O)cc1)=C2c1ccc(O)cc1)N1CCc2ccccc21 (stereo not drawn)", "target or system": "MCF7 3xERE-luc, steroid-deprived", "test": "ERE luciferase reporter, agonist", "measurement": "EC50", "result": "0.0251 µM"}
{"SMILES": "COC1CN([C@H]2CC[C@H]([C@@]3(C)Oc4c(Cl)cc(C(=O)NCc5c(SC)cc(C)[nH]c5=O)c(C)c4O3)CC2)C1", "test": "RNA-seq, item: HOXA4", "test system": "human, whole blood", "conditions": "dose not given, 24 h", "scale": "reference: pretreatment baseline", "measurement": "log2 fold change", "result": 2.46}
{"SMILES": "CC[C@H]1CN([C@@H](CC)c2ccc(C(F)(F)F)cc2)[C@H](CC)CN1c1nc(=O)n(C)c2ccc(C#N)nc12", "target or system": "human CD4+ T cells", "test": "protein phosphorylation, phosphoproteomics, item: POLE4 Ser9 phosphorylation", "conditions": "1 h, stimulation 60 min", "measurement": "EC50", "result": "0.0106 µM"}
{"SMILES": "CN(C)Cc1nc(Nc2ccc(-c3cnc4cc(F)ccn34)c3c2C(=O)NC3)ccc1C1CCOC1 (stereo not drawn)", "target or system": "human CD8 T cells", "test": "cytokine induction, item: IL-2", "conditions": "together with: anti-CD3/CD28", "measurement": "EC50", "result": "0.013 µM"}
{"SMILES": "C=C(NC(=O)c1csc(-c2cccnc2)n1)C(=O)NC(=C)C(=O)OC", "target or system": "SCC-61", "test": "cell viability", "measurement": "EC50", "result": "8.4 µM"}
{"SMILES": "Cc1ccncc1.[Cl-].[Cl-].[Ru+2].c1cc(-c2ccc3cccnc3n2)nc(-c2ccc3cccnc3n2)c1.c1ccc2cc3nc4c5cccnc5c5ncccc5c4nc3cc2c1", "target or system": "SK-MEL-28", "test": "photocytotoxicity", "conditions": "visible light 400-700 nm, 100 J/cm2, oxygen 1%", "measurement": "EC50", "result": "78.2 ± 0.9 µM"}
{"SMILES": "C=CC(=O)Nc1cccc(Cn2ncc3cnc(Nc4cnn(CCOC)c4)nc32)c1", "target or system": "EPHA1 human", "test": "binding, KINOMEscan", "conditions": "100 nM", "scale": "lower = stronger binding", "measurement": "percent of control", "result": "31%"}
{"SMILES": "Cc1ncsc1-c1ccc(C(C)NC(=O)C2CC(O)CN2C(=O)C(NC(=O)CCCCCCCCCCN2CCCC(Nc3ncc(Cl)c(Nc4ccccc4S(=O)(=O)C(C)C)n3)C2)C(C)(C)C)cc1 (stereo not drawn)", "target or system": "22Rv1", "test": "RNA-seq, item: SIPA1L3 mRNA", "conditions": "concentration not given", "scale": "reference: DMSO", "measurement": "log2 fold change", "result": -1.04}
{"SMILES": "COc1ccc(N(c2ccccc2)S(=O)(=O)C2CC3OC2C(c2ccc(O)cc2)=C3c2ccc(O)cc2)cc1 (stereo not drawn)", "target or system": "MCF7 3xERE-luc, steroid-deprived", "test": "ERE luciferase reporter, agonist", "measurement": "EC50", "result": "0.0631 µM"}
{"SMILES": "Cc1c(C#N)sc2c1S(=O)(=O)c1c-2sc(-c2sc3c(sc4c(C)c(COCc5cn(CC(=O)NCCOCCOCCCCCCCl)nn5)sc43)c2C)c1C", "target or system": "HeLa stably expressing mitochondrial HaloTag-GFP", "test": "cell penetration, covalent, HaloTag chloroalkane penetration", "measurement": "EC50", "result": "0.24 ± 0.03 µM"}
{"SMILES": "CNS(=O)(=O)Nc1nccc(Cc2c(C)c3ccc(Oc4ncccc4F)cc3oc2=O)c1F", "target or system": "KYSE-410", "test": "cell viability", "conditions": "7 days", "measurement": "IC50", "result": "0.0202 µM"}
{"SMILES": "Nc1ncc(-c2cc(-c3cnn(CC(F)(F)F)c3)ncc2F)nc1C(=O)NC1CNCC(F)C1 (stereo not drawn)", "target or system": "MKK7", "test": "KINOMEscan", "conditions": "1 µM", "scale": "reference: DMSO control", "measurement": "remaining binding", "result": "100%"}
{"note": "Some of these lines once more:"}
{"SMILES": "COC(=O)[C@H](C)NC(=O)[C@H](C)NC(=O)c1csc(-c2cccnc2)n1", "target or system": "SCC-61", "test": "cell viability", "measurement": "EC50", "result": "> 30 µM"}
{"SMILES": "C=C(NC(=O)c1csc(-c2cccnc2)n1)C(=O)NC(=C)C(=O)OC", "target or system": "SCC-61", "test": "cell viability", "measurement": "EC50", "result": "8.4 µM"}
{"SMILES": "CN(C)Cc1nc(Nc2ccc(-c3cnc4cc(F)ccn34)c3c2C(=O)NC3)ccc1C1CCOC1 (stereo not drawn)", "target or system": "human CD8 T cells", "test": "cytokine induction, item: IL-2", "conditions": "together with: anti-CD3/CD28", "measurement": "EC50", "result": "0.013 µM"}
